Values quoted from earlier work, collected from citations in different studies.
Protocols differ between the studies behind these lines. ± gives the spread as reported.

CC1=C(COC2OC(CO)C(O)C(O)C2O)C(=O)OC(C(C)C2CCC3C4CC5OC56C(O)C=CC(=O)C6(C)C4CCC23C)C1 (centres unmarked)
IC50 (Hs-578T; cell growth): 8.79 µM

Cc1ccc2nc(SCc3cn(-c4cccc(C(=O)O)c4)nn3)n(Cc3ccccc3)c(=O)c2c1
IC50 (HCT-116): 4.47 µM

Oc1cccc(-c2cccc(O)n2)n1.[Cl-].[Cl-].[Ru+2].c1cnc2c(c1)c1c(c3cccnc32)OCCO1.c1cnc2c(c1)c1c(c3cccnc32)OCCO1
IC50 (MCF-10A; cell viability; dark): 58 µM

CCC1=C(O)c2c(oc(-c3ccc4ccccc4c3)cc2=O)C(CC)(CC)C1=O
IC50 (PC-3; cell growth, SRB): 2.58 µM

Cc1ccc(Cn2cc(CN3C(=O)C4(C(C#N)=C(N)Nc5c4ccc4[nH]c6ccccc6c54)c4cc(F)ccc43)nn2)cc1 (centres unmarked)
IC50 (HeLa; cell growth): 3.35 µM

COc1ccc(C(C#N)(CCCCCN2Cc3cc(OC)c(OC)cc3C2)Sc2ccc(C)cc2)cc1OC (centres unmarked)
IC50 (S1B1-20): 0.81 µM

CCN(CC)CC(=O)Nc1cccc(-n2cc(-c3ccc4ccc(-c5cn(-c6cccc(NC(=O)CN(CC)CC)c6)nn5)cc4c3)nn2)c1
IC50 (RCC4): 1.4 µM

Cc1cc2c(c(=O)o1)C(c1ccc(-n3cncn3)cc1)C(C#N)=C(N)O2 (centres unmarked)
IC50 (HCT-116; cell growth): 7.58 ± 1.01 µM

CC(C)(O)c1ncc([S@](N)(=O)=NC(=O)Nc2c3c(cc4c2CCC4)CCC3)s1
IC50 (human PBMC, monocytes, macrophages; IL-1β release; free concentration, range, added: LPS): 0.001 to 0.0029 µM

CC(C)[C@H]1CC[C@]2(C)C(=O)CCC(=O)C=C12
IC50 (synovial cells; cell growth): 11.8 ± 0.23 µM

CCC1=C(O)c2c(oc(-c3ccc(OC)c4ccccc34)cc2=O)C(CC)(CC)C1=O
IC50 (KB; cell growth, SRB): 1.67 µM

CCN(CC)c1ccc2c(c1)Oc1cc(N(CC)CC)ccc1C21c2ccccc2C(=O)N1N=Cc1ccnc(-c2cc(C)ccn2)c1.Cc1c(C)c(-c2ccc(-c3ccccc3)cc2)[c-](C)c1C.F[P-](F)(F)(F)(F)F.[Cl-].[Ir+3]
IC50 (BEAS-2B; concentration not given): 7.2 ± 0.6 µM

CC1=C(CO)C(=O)O[C@@H]([C@@H](C)[C@H]2CC[C@H]3[C@@H]4C[C@H]5O[C@]56[C@@H](O)C=CC(=O)[C@]6(C)[C@H]4CC[C@]23C)C1
IC50 (NCI-H460; cell growth): 0.38 µM

O=C1c2ccccc2NC(c2ccc(Cl)c([N+](=O)[O-])c2)N1/N=C/c1ccc(Cl)c([N+](=O)[O-])c1 (centres unmarked)
IC50 (human renal tubule TH-1; cytotoxicity): > 1000 µM

CC1=C(C)C(=O)OC(C(C)(O)C2CCC3C4CC5OC56C(O)C=CC(=O)C6(C)C4CCC32C)C1 (centres unmarked)
IC50 (bone marrow cells): 7.24 µM

COc1ccccc1NC(=O)N[C@H](C(=O)Nc1ccc(C(=O)NO)cc1)c1ccccc1
IC50 (KG-1; cell viability, MTT): 2.8 µM

O=C1OCC2=C1C(c1cccc(Br)c1)C1=C(N2)C(=O)c2ccccc2C1=O (centres unmarked)
IC50 (KB cells; cell growth): 1.71 ± 0.07 µM

CC1=C2[O][Ru-]([Cl])[O+]=C2C=CN1CCCCCCN1C=CC2=[O+][Ru-]([Cl])[O]C2=C1C.Cc1ccc(C(C)C)cc1.Cc1ccc(C(C)C)cc1
IC50 (A2780; MTT): 30 ± 6 µM

COc1cc(/C=C/C(=O)NCCc2ccc(OC)c(OC)c2)ccc1O
IC50 (RAW264.7; nitric oxide production; 24 h, added: LPS 100 ng/mL): > 10 µM

O=C1OCC2=C1C(c1ccccc1[N+](=O)[O-])C1=C(N2)C(=O)c2ccccc2C1=O (centres unmarked)
IC50 (HepG2 cells; cell growth): 0.47 ± 0.01 µM
